Values quoted from earlier work, collected from citations in different studies.
Protocols differ between the studies behind these lines. ± gives the spread as reported.

Cc1c(O)c(C23CC4CC(CC(C4)C2)C3)cc2c1CC[C@@H]1[C@@H]2CC[C@]2(C)C(=O)CC[C@@H]12  EC50 (HT-22; cell protection; with: iodoacetic acid 20 µM): 164 nM
Cc1ccc([N+](=O)[O-])cc1S(=O)(=O)N(C)/N=C/c1cnc2ccc(Br)cn12  IC50 (phosphatidylinositol 4-phosphate 5-kinase type I beta; enzyme activity, inhibitor; with: 10 µM ATP): > 100000 nM
O=P(O)(O)OC[C@H]1O[C@H](OP(=O)(O)OP(=O)(O)O)[C@H](O)[C@@H]1O  kcat (HGPRT Trypanosoma cruzi isoform C; substrate, item: IMP; 6 to 200 µM, with: hypoxanthine 100 µM): 24 ± 1 s⁻¹
Oc1cccc(-c2nc(N3CCOCC3)c3oc4ncccc4c3n2)c1  IC50 (ATR; kinase activity, inhibitor; with: 10 µM ATP): 850 nM
N=C(N)c1ccc(OCCCCCOc2ccc(C(=N)N)cc2)cc1  IC50 (Trypanosoma brucei gambiense; cell growth; IL1922): 14 ± 3.1 nM
NC(=O)N1c2ccccc2C=Cc2ccccc21  ED50 (psychomotor seizure protection; mice; 6 Hz 44 mA 3 s stimulation): 9.5 mg/kg
COc1ccc2c(c1OC)N=C(NC(=O)c1cccnc1)N1CCN=C21  IC50 (phosphatidylinositol 5-phosphate 4-kinase type II beta; enzyme activity, inhibitor; with: 10 µM ATP): > 100000 nM
CCC(C)c1c(O)ccc2c1CC[C@@H]1[C@@H]2CC[C@]2(C)C(=O)CC[C@@H]12 (stereo partly shown)  EC50 (HT-22; cell protection; with: iodoacetic acid 20 µM): 680 nM
Cc1cc(C(C)Nc2ccccc2)c2oc(-c3ccncc3)cc(=O)c2c1 (stereo not shown)  IC50 (phosphatidylinositol 5-phosphate 4-kinase type II beta; enzyme activity, inhibitor; with: 10 µM ATP): > 100000 nM
C[C@]12CC[C@@H]3c4ccc(O)cc4CC[C@H]3[C@@H]1CC[C@@H]2O  EC50 (HT-22; cell protection; with: iodoacetic acid 40 µM): 4700 nM
CC(=O)c1cccc(N[C@H]2[C@H](N)[C@@](NC(=O)N(C)C)([C@H](C)O)[C@@](C)(O)[C@@]2(O)COC(=O)c2c(C)cccc2O)c1  GI50 (NCI-H322M): 120 nM
C[C@@]12CC=C3c4ccc(O)cc4CC[C@@H]3[C@H]1CC[C@H]2O  EC50 (HT-22; cell protection; with: glutamate 20 mM): 851 nM
CC(=O)O[C@H]1Cc2ccccc2N(C(N)=O)c2ccccc21  ED50 (protection against seizures; male NMRI mouse; MES-induced seizures): 23 mg/kg

For quick reference, copied from above:
CC(=O)O[C@H]1Cc2ccccc2N(C(N)=O)c2ccccc21  ED50 (protection against seizures; male NMRI mouse; MES-induced seizures): 23 mg/kg
C[C@]12CC[C@@H]3c4ccc(O)cc4CC[C@H]3[C@@H]1CC[C@@H]2O  EC50 (HT-22; cell protection; with: iodoacetic acid 40 µM): 4700 nM
